Published values gathered from unrelated publications.
Each numbered part is a random draw from the data of one study; scales do not carry over between parts. Several values in a cell are separate wells, animals, samples, runs or records.
UniProt P10721, sequence (whole entry, looked up): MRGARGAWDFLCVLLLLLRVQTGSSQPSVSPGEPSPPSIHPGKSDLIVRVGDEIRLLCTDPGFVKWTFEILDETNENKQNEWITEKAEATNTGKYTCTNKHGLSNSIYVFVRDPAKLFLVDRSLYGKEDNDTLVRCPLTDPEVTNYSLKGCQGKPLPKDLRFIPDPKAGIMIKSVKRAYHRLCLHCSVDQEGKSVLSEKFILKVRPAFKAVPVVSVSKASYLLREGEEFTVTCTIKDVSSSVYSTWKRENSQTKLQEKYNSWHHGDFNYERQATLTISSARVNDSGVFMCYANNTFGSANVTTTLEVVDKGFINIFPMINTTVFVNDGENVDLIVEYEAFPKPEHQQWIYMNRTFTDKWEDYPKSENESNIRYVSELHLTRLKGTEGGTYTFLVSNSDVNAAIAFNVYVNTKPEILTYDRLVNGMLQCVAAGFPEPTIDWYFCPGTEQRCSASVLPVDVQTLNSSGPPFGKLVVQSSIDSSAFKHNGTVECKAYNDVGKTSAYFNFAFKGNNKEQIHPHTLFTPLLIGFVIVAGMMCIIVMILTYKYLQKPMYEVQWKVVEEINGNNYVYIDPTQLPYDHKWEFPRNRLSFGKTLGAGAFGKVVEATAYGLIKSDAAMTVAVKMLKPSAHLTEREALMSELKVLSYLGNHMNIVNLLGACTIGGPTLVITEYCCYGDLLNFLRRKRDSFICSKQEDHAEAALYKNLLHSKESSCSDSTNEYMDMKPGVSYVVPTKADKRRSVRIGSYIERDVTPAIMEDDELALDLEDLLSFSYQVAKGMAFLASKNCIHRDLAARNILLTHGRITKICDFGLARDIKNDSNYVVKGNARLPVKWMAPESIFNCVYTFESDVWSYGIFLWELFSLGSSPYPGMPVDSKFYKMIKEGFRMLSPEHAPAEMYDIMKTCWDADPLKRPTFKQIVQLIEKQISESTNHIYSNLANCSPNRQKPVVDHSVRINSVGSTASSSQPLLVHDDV
UniProt O75747, sequence (whole entry, looked up): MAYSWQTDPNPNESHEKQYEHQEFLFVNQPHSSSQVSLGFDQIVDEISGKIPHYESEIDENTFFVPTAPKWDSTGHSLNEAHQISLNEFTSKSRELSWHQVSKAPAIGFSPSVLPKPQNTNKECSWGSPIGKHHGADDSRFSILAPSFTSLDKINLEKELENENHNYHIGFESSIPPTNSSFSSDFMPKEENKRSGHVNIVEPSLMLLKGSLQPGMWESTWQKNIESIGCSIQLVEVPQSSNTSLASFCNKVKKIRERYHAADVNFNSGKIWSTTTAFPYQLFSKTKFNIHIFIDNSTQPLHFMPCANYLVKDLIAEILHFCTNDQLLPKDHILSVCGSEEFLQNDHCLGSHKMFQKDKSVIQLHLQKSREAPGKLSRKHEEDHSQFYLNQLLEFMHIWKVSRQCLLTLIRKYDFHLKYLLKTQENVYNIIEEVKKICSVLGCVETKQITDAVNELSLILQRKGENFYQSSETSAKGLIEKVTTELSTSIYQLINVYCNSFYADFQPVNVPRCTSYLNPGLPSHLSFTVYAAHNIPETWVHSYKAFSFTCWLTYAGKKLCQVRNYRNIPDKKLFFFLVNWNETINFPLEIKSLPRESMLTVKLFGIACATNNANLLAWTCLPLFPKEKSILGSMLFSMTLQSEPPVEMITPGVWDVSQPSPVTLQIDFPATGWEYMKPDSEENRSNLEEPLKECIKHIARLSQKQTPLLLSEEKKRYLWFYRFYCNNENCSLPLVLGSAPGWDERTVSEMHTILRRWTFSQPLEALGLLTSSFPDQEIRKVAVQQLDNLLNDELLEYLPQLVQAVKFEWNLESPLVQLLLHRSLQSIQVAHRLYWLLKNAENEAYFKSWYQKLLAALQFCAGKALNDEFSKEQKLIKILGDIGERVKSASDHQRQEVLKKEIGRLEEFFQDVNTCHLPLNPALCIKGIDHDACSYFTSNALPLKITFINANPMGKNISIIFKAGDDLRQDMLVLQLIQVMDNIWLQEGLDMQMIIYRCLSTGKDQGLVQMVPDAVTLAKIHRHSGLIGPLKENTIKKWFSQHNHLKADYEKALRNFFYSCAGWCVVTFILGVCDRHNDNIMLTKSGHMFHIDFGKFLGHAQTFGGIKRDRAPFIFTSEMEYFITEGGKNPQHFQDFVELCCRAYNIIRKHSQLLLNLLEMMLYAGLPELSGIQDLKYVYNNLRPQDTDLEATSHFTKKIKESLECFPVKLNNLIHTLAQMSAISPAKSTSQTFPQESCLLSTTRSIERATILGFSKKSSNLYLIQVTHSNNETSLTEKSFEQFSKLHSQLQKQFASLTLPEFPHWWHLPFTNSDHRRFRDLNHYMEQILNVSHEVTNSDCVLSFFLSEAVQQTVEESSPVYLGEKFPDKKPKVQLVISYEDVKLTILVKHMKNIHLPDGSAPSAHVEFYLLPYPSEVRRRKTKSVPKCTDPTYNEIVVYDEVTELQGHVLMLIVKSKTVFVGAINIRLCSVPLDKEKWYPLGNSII
UniProt O60285, sequence (whole entry, looked up): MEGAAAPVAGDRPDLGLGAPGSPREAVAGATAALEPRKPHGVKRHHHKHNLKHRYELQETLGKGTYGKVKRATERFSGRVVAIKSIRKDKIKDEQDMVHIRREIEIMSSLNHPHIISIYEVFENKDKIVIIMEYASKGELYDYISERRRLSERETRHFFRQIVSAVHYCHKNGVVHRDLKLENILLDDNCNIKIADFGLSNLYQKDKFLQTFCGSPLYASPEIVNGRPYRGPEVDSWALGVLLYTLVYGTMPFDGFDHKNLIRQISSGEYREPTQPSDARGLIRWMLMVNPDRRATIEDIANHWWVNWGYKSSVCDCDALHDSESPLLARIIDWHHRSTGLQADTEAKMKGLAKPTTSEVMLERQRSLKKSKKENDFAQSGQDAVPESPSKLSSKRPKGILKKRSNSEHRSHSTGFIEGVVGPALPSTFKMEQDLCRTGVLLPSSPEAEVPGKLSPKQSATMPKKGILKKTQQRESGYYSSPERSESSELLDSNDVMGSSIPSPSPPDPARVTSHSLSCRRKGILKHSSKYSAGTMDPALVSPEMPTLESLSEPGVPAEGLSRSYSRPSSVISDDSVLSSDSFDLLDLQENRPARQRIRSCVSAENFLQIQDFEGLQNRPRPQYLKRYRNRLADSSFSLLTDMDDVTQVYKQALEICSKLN
UniProt Q9NY57, sequence (whole entry, looked up): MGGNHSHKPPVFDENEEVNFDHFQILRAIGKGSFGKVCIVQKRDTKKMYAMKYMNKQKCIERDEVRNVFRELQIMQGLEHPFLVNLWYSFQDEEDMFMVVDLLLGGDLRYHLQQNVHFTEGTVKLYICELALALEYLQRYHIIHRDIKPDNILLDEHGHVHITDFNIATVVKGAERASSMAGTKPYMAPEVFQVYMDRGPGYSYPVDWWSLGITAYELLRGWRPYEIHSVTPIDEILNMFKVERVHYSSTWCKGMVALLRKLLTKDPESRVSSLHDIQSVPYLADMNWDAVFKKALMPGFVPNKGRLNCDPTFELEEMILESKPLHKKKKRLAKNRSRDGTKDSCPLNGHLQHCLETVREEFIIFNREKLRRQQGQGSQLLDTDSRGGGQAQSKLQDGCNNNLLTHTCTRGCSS
UniProt O60331, sequence (whole entry, looked up): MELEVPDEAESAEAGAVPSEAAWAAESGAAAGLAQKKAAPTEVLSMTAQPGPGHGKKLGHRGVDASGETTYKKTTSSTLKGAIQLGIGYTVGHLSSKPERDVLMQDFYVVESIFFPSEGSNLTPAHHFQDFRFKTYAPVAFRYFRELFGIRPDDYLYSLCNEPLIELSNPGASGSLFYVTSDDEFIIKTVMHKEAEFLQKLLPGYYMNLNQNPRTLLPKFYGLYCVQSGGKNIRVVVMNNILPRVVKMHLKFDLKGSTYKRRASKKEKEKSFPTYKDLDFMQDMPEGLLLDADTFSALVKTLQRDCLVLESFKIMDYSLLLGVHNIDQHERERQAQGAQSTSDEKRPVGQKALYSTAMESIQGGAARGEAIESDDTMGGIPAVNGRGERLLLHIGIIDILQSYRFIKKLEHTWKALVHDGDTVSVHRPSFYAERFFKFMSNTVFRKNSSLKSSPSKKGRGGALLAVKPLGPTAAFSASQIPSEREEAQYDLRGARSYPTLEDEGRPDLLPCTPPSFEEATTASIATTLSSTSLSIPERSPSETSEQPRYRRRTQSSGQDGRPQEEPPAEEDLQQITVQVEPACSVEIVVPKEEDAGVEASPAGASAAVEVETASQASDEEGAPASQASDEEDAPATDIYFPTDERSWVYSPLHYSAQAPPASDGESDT

Set 1
Host: mouse
Matrix: microsomes or S9
Concentration: 2 µM
Time: 0.5 h
SMILES | remaining compound [%]
Cc1cc2cc[nH]c2cc1NC(=O)Cc1ccc(F)cc1F | 2.79
CCOC(=O)N1CCN(C(=O)C2=C(C)C(=O)OC23CCN(S(=O)(=O)CC)CC3)CC1 | 78.8
CC(C)n1c(=O)ccc2cnc(N[C@H]3CC[C@H](CN(C)C)CC3)nc21 | 79.8
CC(=O)NCCOc1c(C)cc(S(N)(=O)=O)cc1C | 60.3

Set 2
Target: Tyrosine-protein kinase receptor TYRO3 (TYRO3, Homo sapiens, UniProt Q06418)
UniProt Q06418, sequence (whole entry, looked up): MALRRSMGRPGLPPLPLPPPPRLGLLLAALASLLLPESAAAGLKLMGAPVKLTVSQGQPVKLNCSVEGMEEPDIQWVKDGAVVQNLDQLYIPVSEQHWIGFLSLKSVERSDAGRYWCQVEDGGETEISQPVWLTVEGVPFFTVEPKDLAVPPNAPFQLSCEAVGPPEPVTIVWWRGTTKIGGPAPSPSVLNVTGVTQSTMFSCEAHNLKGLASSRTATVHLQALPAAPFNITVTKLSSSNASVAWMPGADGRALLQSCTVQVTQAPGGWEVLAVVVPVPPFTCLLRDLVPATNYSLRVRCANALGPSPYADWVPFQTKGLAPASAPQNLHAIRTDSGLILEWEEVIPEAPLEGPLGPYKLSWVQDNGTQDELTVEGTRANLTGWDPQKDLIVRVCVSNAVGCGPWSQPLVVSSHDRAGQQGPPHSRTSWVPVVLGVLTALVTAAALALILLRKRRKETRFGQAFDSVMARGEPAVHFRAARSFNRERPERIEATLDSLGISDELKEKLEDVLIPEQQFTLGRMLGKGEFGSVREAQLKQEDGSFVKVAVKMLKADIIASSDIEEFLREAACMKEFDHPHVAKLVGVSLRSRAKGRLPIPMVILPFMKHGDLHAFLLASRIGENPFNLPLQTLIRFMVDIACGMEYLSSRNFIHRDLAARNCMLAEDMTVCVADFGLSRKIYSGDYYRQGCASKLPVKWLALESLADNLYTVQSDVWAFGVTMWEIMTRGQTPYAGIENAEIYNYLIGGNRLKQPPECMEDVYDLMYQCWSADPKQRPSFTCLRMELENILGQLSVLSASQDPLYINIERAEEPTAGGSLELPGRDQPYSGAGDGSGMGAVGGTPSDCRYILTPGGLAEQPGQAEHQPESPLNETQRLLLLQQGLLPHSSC
Effect on: enzyme activity
Mode: inhibitor
Concentration: 0.5 µM
Reference: control
Structure (SMILES) | remaining activity
O=C(CCCc1ccc(-c2ccccc2F)cc1)Nc1ccc(O)cc1 | 98.2%
Cc1cccc(-c2[nH]c(C(C)(C)C)nc2-c2ccc3c(c2)OCO3)n1 | 102%
C#Cc1cccc(Nc2ncnc3cc(OCCOC)c(OCCOC)cc23)c1 | 97%
Nc1[nH]nc2nc3ccccc3nc12 | 101%
CC(C)[C@H](CO)Nc1nc(Nc2cc(N)cc(Cl)c2)c2ncn(C(C)C)c2n1 | 103%
OCC(O)CCON=C1C(c2c(O)[nH]c3ccccc23)=Nc2ccccc21 (centres unmarked) | 71.5%
NCCNc1ncc(C(N)=O)c(Nc2cccc(C(F)(F)F)c2)n1 | 94.2%
Cn1sc(=O)n(Cc2ccccc2)c1=O | 99.9%
CN(C)c1ccc(C=C2C(=O)Nc3ccccc32)cc1 | 92.7%
O=C(Nc1cccc(Nc2cc(Nc3cccc(C(F)(F)F)c3)ncn2)c1)C1CC1 | 85.4%
COc1ccc(CNC(=O)Nc2ncc([N+](=O)[O-])s2)cc1 | 100%
O=c1c2ccccc2[nH]c(=S)n1CCN1CCC(=C(c2ccc(F)cc2)c2ccc(F)cc2)CC1 | 91.1%
O=C(O)c1ccc2c3c1cccc3c(=O)n1c3ccccc3nc21 | 102%
O=C1NC(=O)C(c2cn(CCCn3ccnc3)c3ccccc23)=C1Nc1ccccc1 | 99.6%
COc1ccc(C(=O)Nc2sc3c(c2C(N)=O)CCCC3)cc1OC | 98.1%

Set 3
Cell line: mouse MPNST tumor cells
Method: high-content nuclear imaging
Refers to: cell number
Concentration: 10 µM
Time: 12 h
Notes: mean of 2 replicates
Reference: plate mean
Reading: higher = more cells
SMILES | nuclei count
CCN(CC)CC1CCN(c2ncc3ncnc(Nc4ccc(F)c(Cl)c4)c3n2)CC1 | -5.42 z-score
CNCC(O)c1ccc(OC(=O)C(C)(C)C)c(OC(=O)C(C)(C)C)c1 (centres unmarked) | 4 z-score
CCCCCCCCCCCCCCCC[N+](C)(C)CCN(Cc1ccc(OC)cc1)c1ncccn1 | -3.83 z-score
CC(C)(C(=O)c1cccnc1)c1cccnc1 | 1.92 z-score and 0.666 z-score
CC(=O)NCCCS(=O)(=O)O | -0.475 z-score and 0.346 z-score
CN(C)CCCn1cc(C2=C(c3c[nH]c4ccccc34)C(=O)NC2=O)c2ccccc21 | 0.746 z-score

Set 4
Structure (SMILES): COc1ccc2cc(OCC3(C(=O)O)CN(C(=O)c4ccc(F)cc4)C3)ccc2c1
Effect on: cell-free assay
Method: competition with immobilised ligand
Concentration: 1 µM
target | remaining binding [%]
Mast/stem cell growth factor receptor Kit, autoinhibited (KIT, Homo sapiens, UniProt P10721) | 100
Inhibitor of nuclear factor kappa-B kinase subunit beta (IKBKB, Homo sapiens, UniProt O14920) | 100
NUAK family SNF1-like kinase 1 (NUAK1, Homo sapiens, UniProt O60285) | 94
Transient receptor potential cation channel subfamily M member 6 (TRPM6, Homo sapiens, UniProt Q9BX84) | 98
Serine/threonine-protein kinase 32B (STK32B, Homo sapiens, UniProt Q9NY57) | 100
Phosphatidylinositol 3-kinase C2 domain-containing subunit gamma (PIK3C2G, Homo sapiens, UniProt O75747) | 100
Phosphatidylinositol 4-phosphate 5-kinase type-1 gamma (PIP5K1C, Homo sapiens, UniProt O60331) | 84

For quick reference, copied from above (set 2):
Structure (SMILES) | remaining activity
O=c1c2ccccc2[nH]c(=S)n1CCN1CCC(=C(c2ccc(F)cc2)c2ccc(F)cc2)CC1 | 91.1%
CC(C)[C@H](CO)Nc1nc(Nc2cc(N)cc(Cl)c2)c2ncn(C(C)C)c2n1 | 103%
O=C1NC(=O)C(c2cn(CCCn3ccnc3)c3ccccc23)=C1Nc1ccccc1 | 99.6%
OCC(O)CCON=C1C(c2c(O)[nH]c3ccccc23)=Nc2ccccc21 (centres unmarked) | 71.5%
